Experimental data from different studies.
Each line is one published result; not all experiments were run side by side. Numbers after ± are the reported error.
Cell line: A549

With COc1cc(N(C)CCN(C)C)c(NC(=O)/C=C/c2cc(F)cc(Cl)c2)cc1Nc1nccc(-c2cn(C)c3ccccc23)n1 the IC50 was 0.433 µM (cell growth or viability, MTT; 72 h).
CCCC(CCC)C(=O)[O][Pt]([Cl])([Cl])[O]C(=O)C(CCC)CCC.N.N has an IC50 of 1.12 µM (cell growth or viability).
With CCCCCCCCC=CCCCCCCCC(=O)OC(COC(=O)Cc1c(C)n(C(=O)c2ccc(Cl)cc2)c2ccc(OC)cc12)COP(=O)([O-])OCC[N+](C)(C)C (centres unmarked) the IC50 was 42.2 µM (cell growth or viability, SRB; 72 h).
With S=c1n(-c2ccccc2)c2c3ccccc3nc3[n+]2[n]1[Ir-3]12([S]3)([c]3ccccc3-c3cccc[n+]31)[c]1ccccc1-c1cccc[n+]12 the IC50 was 0.027 ± 0.003 µM (cell viability, MTT; irradiation 450 nm, 15.5 mW/cm^2, 15 min).
CC(=O)OC1CCC2(C)C3=CCC4(C)C(C(C)CCC=C(C)C)CC(O)C4(C)C3=CCC2C1(C)C (centres unmarked): IC50 “inactive” (cell viability, MTT; 72 h).
For CSc1nc(N)c2c(F)c(C#N)c(F)c(Cl)c2n1, the IC50 was 12.3 µM (cell growth or viability, MTT; 96 h).
For Cc1c2ccccc2n2c1c(-c1ccccc1)c(S(=O)(=O)c1ccccc1)c1ccccc12, the IC50 was 41.1 µM (cell growth or viability, MTT; 72 h).
With O=C1c2cccc3cccc(c23)C12NC(Cc1ccc(O)cc1)C([N+](=O)[O-])C2c1ccc(Br)cc1 (centres unmarked) the IC50 was 40.2 µM (cell growth or viability, MTT; 24 h).
With CC(=O)O[C@@H]1CC[C@@]2(C)[C@@H](CC[C@]3(C)[C@@H]2C(=O)C=C2[C@@H]4[C@@H](C)[C@H](C)CC[C@]4(C)CC[C@]23C)[C@@]1(C)C(=O)NCCNC(=O)CCCCCBr the IC50 was 9.73 µM (cell growth or viability, MTT; 48 h).
With Cc1ccc2nc(NC(=O)Cn3cc(COc4ccc(/C=N/Nc5cc([N+](=O)[O-])cc([N+](=O)[O-])c5)cc4)nn3)sc2c1 the IC50 was 65 µM (cell growth or viability, MTT; 48 h).
The IC50 of Cc1ccc2ccc3ccc(C)nc3c2n1.Cc1ccc2ccc3ccc(C)nc3c2n1.Clc1ccc(-c2cc(-c3ccccn3)nn2-c2ccccc2)cc1.[Cl-].[Cl-].[Ru+2] is reported as 5.5 µM (resazurin; 72 h, together with: indigo light 450 nm, 29.1 J/cm2).
Cc1cc(C#N)cc(C)c1Oc1cc(Nc2ccc(C#N)cc2)nc2cnccc12 gave an IC50 of > 128 µM (48 h).
With N#Cc1cccc(-c2ccc(=O)n(Cc3cccc(-c4ncc(OCC5CCN(CCCCC(=O)Nc6ccc7c(c6)C(=O)N(C6CCC(=O)NC6=O)C7=O)CC5)cn4)c3)n2)c1 (centres unmarked) the IC50 was 0.977 µM (cell growth or viability, CCK-8; 72 h).
COc1ccc(CN2C[C@H](O)[C@H](O)[C@@H]2CO)cc1 has an IC50 of > 200 µM (cell growth or viability, MTS; 72 h).
With COC(=O)[C@@H]1CCCN1C(=O)[C@H](C)N(C)C(=O)OC(C)(C)C the IC50 was 28 µM (cell growth or viability, SRB).
For Cc1cc(C)c([N+]#[C][Pt-]([Cl])([Cl])=[C](Nc2ccc(CN[C](Nc3c(C)cc(C)cc3C)=[Au][Cl])cc2)Nc2c(C)cc(C)cc2C)c(C)c1, the IC50 was > 100 µM (cell growth or viability).
With N=C(N)Nc1nc2ccccc2o1 the IC50 was 167 µM (cell growth or viability, MTT; 24 h).
CC(C)=CCC1=C([O-])C(=O)c2ccccc2C1=O.CC(C)=CCC1=C([O-])C(=O)c2ccccc2C1=O.Cc1cc2cccnc2c2ncccc12.[Cu+2] gave an IC50 of 2.7 ± 0.1 µM (cell viability, MTT; 24 h).
With CC(C)c1cccc(C(C)C)c1[N+]#[C][Pd-]([Cl])([Cl])=[C](Nc1ccc(CN[C](Nc2c(C(C)C)cccc2C(C)C)=[Au][Cl])cc1)Nc1c(C(C)C)cccc1C(C)C the IC50 was > 100 µM (cell growth or viability).
COc1ccccc1C(=O)c1[nH]c(Cl)c(Cl)c1-n1c(C(=O)c2ccccc2OC)cc(Cl)c1Cl has an IC50 of 37 µg/mL (cell growth or viability, resazurin; 24 h).
With O=S([O-])c1ccccc1N=Cc1ccccc1[O-].[Cu+2].c1c[nH]cn1 the IC50 was 13 ± 0.95 µM (cell viability, MTT; 24 h).
CCN1CCC2(CC1)C/C(=N\NC(=O)Nc1ccccc1)c1ccccc1O2 has an IC50 of 1.9 µM (cell growth or viability, MTT; 48 h).
With CC(=O)OC[C@]1(C)CCC[C@]2(C)[C@@H]1CC[C@@]13C[C@@H](C[C@H](O)[C@H]12)[C@H](C)C3=O the IC50 was > 20 µM (cell growth or viability, MTT).
For O=C1Nc2ccccc2/C1=N/c1ccccc1C(=O)Nc1ccccc1, the IC50 was 23.8 µM (cell growth or viability, MTT; 24 h).
With COC(=O)CCC(=O)[O][Pt-2]1([Cl])([Cl])([O]C)[NH2+]CC[N+]1(C)C the IC50 was 38 µM (cell growth or viability, MTT; 96 h).
O=C(CN1C(=O)S/C(=C\c2ccccc2Br)C1=O)Nc1ccc(C(=O)Nc2ccc(F)cc2)cc1 has an IC50 of 19.8 µM (cell growth or viability, MTT).
CCNC(=O)OCc1c(COC(=O)NCC)c(-c2ccc(OC)cc2)n2c1Cc1ccccc1-2 has an IC50 of 15.5 µM (cell growth or viability, resazurin; 72 h).
With c1ccc(-c2nn(-c3ccccn3)[n+](-c3ccccc3)n2)cc1 the IC50 was 17 ± 2 µM (cell growth, resazurin).
For CC(=O)O[C@@H]1CC[C@@]2(C)[C@@H](CC[C@]3(C)[C@@H]2C(=O)C=C2[C@@H]4[C@@H](C)[C@H](C)CC[C@]4(C)CC[C@]23C)[C@@]1(C)C(=O)NCCNC(=O)CCCC[P+](c1ccccc1)(c1ccccc1)c1ccccc1, the IC50 was > 30 µM (cell growth or viability, MTT; 48 h).
CC(C)CCc1c(O)cc2oc3cc(O)c(O)c(CCC(C)C)c3c(=O)c2c1O has an IC50 of 15.6 µM (cell growth or viability; 48 h).
COc1ccc(/C=C/C2=[N+]3C(=C(CO)c4c(C)cc(/C=C/c5ccc(OC)cc5)n4[B-]3(F)F)C(C)=C2)cc1 gave an IC50 of > 100 µM (cell growth or viability, resazurin; dark).
COc1ccc(/N=N/C(=S)N2CCOCC2)cc1 gave an IC50 of > 50 µM (cell growth or viability, resazurin; 48 h).
With N#Cc1cccc(-c2ccc(=O)n(Cc3cccc(-c4ncc(OCC5CCN(CCC(=O)Nc6cccc7c6C(=O)N(C6CCC(=O)NC6=O)C7=O)CC5)cn4)c3)n2)c1 (centres unmarked) the IC50 was 1.26 µM (cell growth or viability, CCK-8; 72 h).
O=C1N=C(N2N=C(c3cccs3)CC2c2ccc(F)cc2)SC1=Cc1ccc(O)cc1 (centres unmarked) has an IC50 of 8.1 µM (cell growth or viability, MTT).
CN1CCCC1CCO/N=C1/C=C2CCC3C(CC[C@]4(C)/C(=C/c5ccccn5)CCC34)[C@@]2(C)CC1 (some centres unmarked) gave an IC50 of > 100 µM (cell growth or viability, MTT; 72 h).
CC(=O)[O-].O.O.O.O.[Mn+2].[O-]c1ccc(Br)cc1C=NCCN1CCOCC1 has an IC50 of 26.2 µg/mL (cell viability, MTT; 72 h).
COc1cc(/C=C/c2cc(C)n[nH]2)ccc1O has an IC50 of > 100 µM (cell growth or viability, MTT; 48 h).
With COc1c(O)cc2oc3cc4c(c(O)c3c(=O)c2c1CC(O)C(C)(C)O)CC(O)O4 (centres unmarked) the IC50 was > 40 µM (cell growth or viability; 48 h).
COc1ccc2c(c1)c(CC(=O)Nc1nnc(CCCCc3ccc(NC(=O)Cc4cccc(OC(F)(F)F)c4)nn3)[se]1)cn2C has an IC50 of 0.01 to 0.04 µM (cell growth, inhibitor, EZMTT; 120 h).
CC1=CC(C)=[N+]2C1=C(CO)c1c(C)cc(C)n1[B-]2(C)C has an IC50 of > 100 µM (cytotoxicity, resazurin; 4 h incubation, dark).
CC(=O)Nc1ccc(/C=C/c2nc3ccc(Br)cc3nc2/C=C/c2ccc(NC(C)=O)cc2)cc1 has an IC50 of 9.32 µM (cell growth or viability, MTT; 72 h).

Some of these lines once more:
With c1ccc(-c2nn(-c3ccccn3)[n+](-c3ccccc3)n2)cc1 the IC50 was 17 ± 2 µM (cell growth, resazurin).
For CC(=O)O[C@@H]1CC[C@@]2(C)[C@@H](CC[C@]3(C)[C@@H]2C(=O)C=C2[C@@H]4[C@@H](C)[C@H](C)CC[C@]4(C)CC[C@]23C)[C@@]1(C)C(=O)NCCNC(=O)CCCC[P+](c1ccccc1)(c1ccccc1)c1ccccc1, the IC50 was > 30 µM (cell growth or viability, MTT; 48 h).
CC(C)CCc1c(O)cc2oc3cc(O)c(O)c(CCC(C)C)c3c(=O)c2c1O has an IC50 of 15.6 µM (cell growth or viability; 48 h).
COc1ccc(/C=C/C2=[N+]3C(=C(CO)c4c(C)cc(/C=C/c5ccc(OC)cc5)n4[B-]3(F)F)C(C)=C2)cc1 gave an IC50 of > 100 µM (cell growth or viability, resazurin; dark).
